Assay results collected from several papers.
Protocols differ between the studies behind these lines. “And” joins repeats or separate records; there may be more than shown. ± marks the error that the study gave.
USP49 ZnF-UBD domain: Ubiquitin carboxyl-terminal hydrolase 49, ZnF-UBD domain (USP49, Homo sapiens, UniProt Q70CQ1)
Chain of UniProt Q70CQ1 (whole entry, looked up): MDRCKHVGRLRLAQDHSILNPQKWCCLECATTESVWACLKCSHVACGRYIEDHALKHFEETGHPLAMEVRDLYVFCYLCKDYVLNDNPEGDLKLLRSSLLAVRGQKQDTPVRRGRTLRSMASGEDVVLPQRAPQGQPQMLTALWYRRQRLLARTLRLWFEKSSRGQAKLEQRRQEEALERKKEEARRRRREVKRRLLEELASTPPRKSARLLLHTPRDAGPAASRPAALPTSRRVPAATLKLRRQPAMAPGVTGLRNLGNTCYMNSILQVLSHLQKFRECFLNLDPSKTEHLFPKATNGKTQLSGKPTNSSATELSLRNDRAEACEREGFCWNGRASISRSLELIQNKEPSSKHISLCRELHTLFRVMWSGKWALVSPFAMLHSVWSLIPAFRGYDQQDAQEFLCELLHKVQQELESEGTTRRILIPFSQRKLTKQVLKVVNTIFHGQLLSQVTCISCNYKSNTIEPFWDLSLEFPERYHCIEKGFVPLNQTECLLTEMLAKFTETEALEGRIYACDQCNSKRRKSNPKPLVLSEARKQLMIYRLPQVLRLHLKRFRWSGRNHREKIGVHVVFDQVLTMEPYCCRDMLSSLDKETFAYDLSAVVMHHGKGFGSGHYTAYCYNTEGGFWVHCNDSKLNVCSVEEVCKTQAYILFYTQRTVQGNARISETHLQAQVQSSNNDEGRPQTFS

| SMILES | target or system | assay | system | conditions | endpoint | value |
| --- | --- | --- | --- | --- | --- | --- |
| O=Cc1cc2c(cc1F)C(=O)N(C1CCC(=O)NC1=O)C2 (stereo not drawn) |  |  | CD-1 mice | intravenous, 1 mg/kg, 8 h | plasma concentration | not detected |
| COc1cccc(-c2n[nH]c(SCc3ccccn3)n2)c1OC |  |  | Sprague-Dawley rats, both sexes | oral dietary, 10 mg/kg/day, day 90, 1 h | plasma concentration | 467 ng/mL |
| CCN1CCN(Cc2ccc(NC(=O)c3ccc(C)c(NC(=O)c4cncc(-c5cccs5)c4)c3)cc2C(F)(F)F)CC1 |  | LC-MS/MS | C57BL/6 mouse, plasma | intraperitoneal, 10 mg/kg single dose, 8 h | plasma concentration | 13 ng/mL and 36 ng/mL and 42 ng/mL |
| O=C(O)CNc1ccc2nncn2n1 | USP49 ZnF-UBD domain |  |  |  | Kd | > 1 mM |
| Cc1cc2sc(N)nc2c2cccnc12 |  | LC-MS | BALB/c mice, female | intraperitoneal, 30 mg/kg, 0.25 h | plasma concentration | 1570 ± 120 ng/mL |
| CC(=O)N(C)C1CCN(c2cc(F)cc(NC(=O)c3cc4c(F)ccc(C)c4[nH]3)c2)C1 (stereo not drawn) |  |  | CD1 mouse, plasma | intravenous, 1 mg/kg, 0.05 h | plasma concentration | 1260 ng/mL |
| Cn1cc([C@H]2C[C@H]3CSC(N)=N[C@@]3(c3ccc(F)cc3F)CO2)cn1 |  |  | male 129/SVE mouse, plasma | subcutaneous, 50 mg/kg, 6 h | plasma concentration | 5.35 µM |
| O=C(O)CCn1sc2ccccc2c1=O | USP49 ZnF-UBD domain |  |  |  | Kd | > 1 mM |
| CCOCc1nc(O)c(-c2nnc(Cc3ccc(Cl)cn3)o2)c(O)c1-c1c(OC)cccc1OC |  |  | anaesthetized rats, plasma | intravenous infusion, 100 µg/kg/min for 15 min, 30 min washout | plasma concentration | 10.3 ± 0.777 µM |
| Cc1c(-c2ccc(N3CCc4cccc(C(=O)Nc5nc6ccccc6s5)c4C3)nc2C(=O)O)cnn1CC12CC3(C)CC(C)(C1)CC(OCCNCC[C@H](O)CO)(C3)C2 |  |  | anaesthetized male beagle dog | iv infusion, 0.1 mg/kg/min, 10 min | plasma concentration | 85 ng/mL |
| NCc1cc2c(cc1F)C(=O)N(C1CCC(=O)NC1=O)C2 (stereo not drawn) |  |  | CD-1 mice | intravenous, 1 mg/kg, 8 h | plasma concentration | not detected |
| O=S(=O)(c1ccc(-c2ccc3nccc(Nc4ccncn4)c3c2)cc1)N1CCOCC1 |  |  | female BALB/c mice, plasma | intraperitoneal, 10 mg/kg, 1 h | plasma concentration | 1450 ng/mL and 1380 ng/mL |

A few entries again:
| SMILES | target or system | assay | system | conditions | endpoint | value |
| --- | --- | --- | --- | --- | --- | --- |
| Cn1cc([C@H]2C[C@H]3CSC(N)=N[C@@]3(c3ccc(F)cc3F)CO2)cn1 |  |  | male 129/SVE mouse, plasma | subcutaneous, 50 mg/kg, 6 h | plasma concentration | 5.35 µM |
